Measured values collected from several papers.
Every numbered part comes from another study and shows a few of its results, in no order.

Series 1
Target: Histone acetyltransferase KAT6A, winged helix 2, GST fusion (KAT6A, Homo sapiens, UniProt Q92794, residues 85-181)
Technique: protein binding microarray
Molecule type: double-stranded DNA, one strand shown
Sample: in vitro
Concentration: not given
Notes: 8-mer, flanks averaged, mean of 2 arrays, mostly near background
Baseline: not given
Reading: higher = stronger binding
Construct (chain): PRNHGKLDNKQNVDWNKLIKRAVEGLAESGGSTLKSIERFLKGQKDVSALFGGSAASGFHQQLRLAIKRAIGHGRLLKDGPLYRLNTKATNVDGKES
`CCCGATAG` gave an E-score of -0.129.
`AGCACCTC` has an E-score of 0.0177.
`AATTAGGC` gave an E-score of 0.126.
With `AGTAAAAT` the E-score was 0.198.
The E-score of `ATGCGGTA` is reported as -0.189.
`ACGGTAGC` has an E-score of 0.0427.

Series 2
Target: Ras GTPase-activating protein-binding protein 1, full length (G3BP1, Homo sapiens, UniProt Q13283)
Chain of UniProt Q13283 (whole entry, looked up): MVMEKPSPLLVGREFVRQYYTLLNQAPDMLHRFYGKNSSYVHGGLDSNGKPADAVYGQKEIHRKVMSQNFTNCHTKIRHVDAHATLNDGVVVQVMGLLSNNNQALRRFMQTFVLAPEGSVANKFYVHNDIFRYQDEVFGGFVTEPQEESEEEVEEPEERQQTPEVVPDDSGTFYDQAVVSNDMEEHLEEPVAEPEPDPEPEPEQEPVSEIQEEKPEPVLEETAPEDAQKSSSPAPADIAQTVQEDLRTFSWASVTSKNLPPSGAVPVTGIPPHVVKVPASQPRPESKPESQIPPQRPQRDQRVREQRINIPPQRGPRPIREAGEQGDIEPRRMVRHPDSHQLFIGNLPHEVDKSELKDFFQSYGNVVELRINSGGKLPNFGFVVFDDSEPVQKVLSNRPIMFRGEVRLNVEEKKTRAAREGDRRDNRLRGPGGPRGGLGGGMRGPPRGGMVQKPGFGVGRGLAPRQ
Technique: RNA Bind-n-Seq
Molecule type: RNA
Sample: in vitro
Concentration: 200 nM
Notes: whole 134-nt RNA, ends assumed
With: 150 mM KCl
Baseline: input library
Reading: higher = stronger binding
With `GGGAGUUCUACAGUCCGACGAUCAAGUCCUGUGCUACACAUCGUAUGUACCGAAUCGGGGAAAAAGGGGAGGGGAGGGGAAAGUAUUAUGUUACGCCGUUCGGAUCUGCACUUUGGAAUUCUCGGGUGUCAAGG` the log2 enrichment was 0.441.
For `GGGAGUUCUACAGUCCGACGAUCCAAGUCCUGUGCUACACAUCGUAUGUACCGAAUCGGGUUUUUGGGUGGGAAAGGGAAAGUAUUAUGUUACGCCGUUCGGAUCUGCACUUCUGGAAUUCUCGGGUGUCAAGG`, the log2 enrichment was 0.382.
`GGGAGUUCUACAGUCCGACGAUCUGGCCCUGGUGGCAUGCGAGGAGGAAGAGGUGGCCUCAUGGAUCGUGGUGGUCCCGGUGGAAUGUUCAGAGGUGGCCGUGGUGGAGACAGUGGAAUUCUCGGGUGUCAAGG` has a log2 enrichment of 0.357.
With `GGGAGUUCUACAGUCCGACGAUCUCCUGUGCUACACAUCGUAUGUACCGAAUCGGGGAAAAAGGGAAAAAGGGGAAAAAGGGAAAGUAUUAUGUUACGCCGUUCGGAUCUGCAUGGAAUUCUCGGGUGUCAAGG` the log2 enrichment was -0.0363.

Single results of other studies
`DLAT (Homo sapiens, UniProt P10515)`: interaction screen “cross-linked” (TTN (Homo sapiens, UniProt Q8WZ42); cross-linking MS; hits only).
With `PhoQ, residues 284 288 289 292 302 303 ASASEQ` the fold induction was 2.5 (PhoP, residues 12 14 15 18 19 QYCSL (Escherichia coli, UniProt P23836); Sort-seq, item: YFP reporter; E. coli; PhoQ-PhoP variant library, with: 10 µM Mg2+; baseline: high Mg2+ state, higher = stronger signaling).

Excerpt of the above (series 2):
With `GGGAGUUCUACAGUCCGACGAUCUCCUGUGCUACACAUCGUAUGUACCGAAUCGGGGAAAAAGGGAAAAAGGGGAAAAAGGGAAAGUAUUAUGUUACGCCGUUCGGAUCUGCAUGGAAUUCUCGGGUGUCAAGG` the log2 enrichment was -0.0363.
